Measurements collected from several papers.
Lines come from different studies, so protocols differ. Numbers after ± are the reported error. Values after ≈ are worked out from the molar mass of the structure shown.

NC(CNC(CNC(CC(=O)O)C(=O)O)C(=O)O)C(=O)O (stereo not shown) — FIC index (carbapenem-resistant Enterobacteriaceae; clinical isolates; concentration not given, with: meropenem): < 0.1
COc1ccc(-n2c(SCCCN3CCOCC3)nnc2[C@H](Cc2ccccc2)NC(=O)Cc2c(C)[nH]c3ccccc23)cc1 — infection (HIV-1 NL4-3; single-round infection; 5 µM, early stage; relative to: untreated): 0.09 ± 0.01%
C=CCc1ccc(OCC(=C)C)c(OC)c1 — antifeedant index (Spodoptera frugiperda; larvae; 500 µg/mL; relative to: untreated control): 66.7%
COC(=O)C1=CO[C@@H](OC(C)=O)[C@@H]2C(Cn3cc(CCO[Si](c4ccccc4)(c4ccccc4)C(C)(C)C)nn3)=CC[C@H]12 — viability (SK-N-SH; neuroprotection, MTT; 0.15 µM, 24 h, with: 250 µM H2O2): 48.5 ± 0.8%
CC(=O)C1=C(O)C=C2Oc3c(C(C)=O)c(O)c(C)c(O)c3[C@@]2(C)C1=O — MIC99 (Candida tropicalis; broth microdilution; ATCC 750 fluconazole and amphotericin B resistant; 24 and 48 h): 17.4 µM (≈ 6 µg/mL)
COC(=O)C1=CO[C@@H](C)[C@@H]2Cn3ccc4c5ccccc5nc-4c3C[C@H]12 — activity fold increase (Plasmodium falciparum; parasite growth, [3H]-hypoxanthine incorporation; Dd2 multidrug-resistant; concentration not given; relative to: Dd2 over 3D7): 4 to 8 fold
CN[C@](C)(C[18F])C(=O)O — tracer uptake (DU-145 tumour model; host not given, pancreas; 1 h, tumour-bearing): 22 %ID/g
O=C(Nc1ccccc1Nc1ccccc1)c1cccnc1Cl — inhibition (Botrytis cinerea; microbial growth; 50 µg/mL): 32.4%
CCCCCCCCC(=O)NCc1ccc(O)c(OC)c1 — IC50 (mAb 4-AT4; antibody binding, indirect competitive ELISA; with: coating antigen hapten 1-OVA): 20.1 ng/mL (≈ 0.0686 µM)
CCCC[C@H](NC(=O)CNC(=O)CNC(=O)c1ccc(NN)nc1)C(=O)N[C@H]1CC(=O)NCCCC[C@@H](C(N)=O)NC(=O)[C@H](Cc2c[nH]c3ccccc23)NC(=O)[C@H](CCCNC(=N)N)NC(=O)[C@@H](Cc2ccccc2)NC(=O)[C@H](Cc2c[nH]cn2)NC1=O [technetium-99m labelled] — tissue uptake (C57 mouse, B16/F1 melanoma-bearing, muscle; intravenous, 0.5 h): 0.27 ± 0.05 %ID/g
CC[C@H](C)[C@H](NC(=O)CNC(=O)[C@H](CC(C)C)NC(=O)[C@@H](NC(=O)CNC(=O)[C@H](CC(C)C)NC(=O)[C@H](CCC(N)=O)NC(=O)[C@@H](NC(=O)[C@H](CO)NC(=O)[C@H](C)NC(=O)[C@H](CCCCN)NC(=O)[C@H](CCCNC(=N)N)NC(=O)[C@H](CC(C)C)NC(=O)CNC(=O)[C@H](CCC(N)=O)NC(=O)[C@H](CC(C)C)NC(=O)[C@H](CC(C)C)NC(=O)[C@H](CCC(=O)O)NC(=O)CNC(=O)[C@H](CCCNC(=N)N)NC(=O)[C@@H](NC(=O)[C@H](CCCCN)NC(=O)[C@H](Cc1ccccc1)NC(=O)[C@H](CCCCN)NC(=O)[C@H](CCCCN)NC(=O)[C@H](CO)NC(=O)[C@H](CCCCN)NC(=O)[C@H](CC(C)C)NC(=O)[C@H](CC(C)C)NC(=O)[C@H](CCCCN)NC(=O)[C@H](CCCCN)NC(=O)[C@@H](NC(=O)[C@@H](NC(=O)[C@H](CCCCN)NC(=O)CNC(=O)[C@H](CC(C)C)NC(=O)[C@H](CCCCN)NC(=O)[C@H](C)N)[C@@H](C)O)[C@@H](C)CC)[C@@H](C)CC)C(C)C)[C@@H](C)O)C(=O)N[C@@H](CC(C)C)C(=O)O — antibacterial activity (Gram-negative bacteria; MIC; concentration not given): active
C[C@@](O)(C(F)F)[C@H](NC(=O)c1ccc(C#CC#CC2CC2)cc1)C(=O)NO — MIC90 (Citrobacter freundii; agar dilution; ESBL and carbapenemase producers): 0.125 µg/mL (≈ 0.332 µM)
CC[C@H](C)[C@H](NC(=O)[C@H](CCCCN)NC(=O)[C@H](CCCCN)NC(=O)[C@H](CC(C)C)NC(=O)[C@H](CCCCN)NC(=O)[C@H](CCC(=O)O)NC(=O)[C@H](CCCCN)NC(=O)[C@@H](NC(=O)[C@H](CCCCN)NC(=O)[C@H](CC(N)=O)NC(=O)[C@H](CCCNC(=N)N)NC(=O)[C@H](Cc1ccccc1)NC(=O)[C@H](CCCCN)NC(=O)[C@H](CCCNC(=N)N)NC(=O)[C@H](CC(C)C)NC(=O)[C@H](CCCNC(=N)N)NC(=O)[C@H](CCCCN)NC(=O)[C@H](CCCNC(=N)N)NC(=O)[C@H](CC(C)C)NC(=O)CN)[C@@H](C)CC)C(=O)NCC(=O)N[C@@H](CCC(N)=O)C(=O)N[C@@H](CCCCN)C(=O)N[C@H](C(=O)N[C@@H](CCC(N)=O)C(=O)NCC(=O)N[C@@H](Cc1ccccc1)C(=O)N[C@H](C(=O)N1CCC[C@H]1C(=O)N[C@@H](CCCCN)C(=O)N[C@@H](CC(C)C)C(=O)N[C@@H](C)C(=O)N1CCC[C@H]1C(=O)N[C@@H](CCCNC(=N)N)C(=O)N[C@H](C(=O)N[C@@H](CC(=O)O)C(=O)N[C@@H](Cc1ccc(O)cc1)C(=O)O)[C@@H](C)O)C(C)C)[C@@H](C)CC — lethal concentration (Streptococcus salivarius; inhibition zone; ATCC 1.2498; LB agar, overnight): 2.25 µM
CC(C)C[C@@H]1NC(=O)[C@H](CCCCN)NC(=O)[C@H](C(C)C)NC(=O)[C@@H]2CCCN2C(=O)[C@@H](Cc2ccc(O)cc2)NC(=O)[C@H](CC(C)C)NC(=O)[C@H](CCCCN)NC(=O)[C@H](C(C)C)NC(=O)[C@@H]2CCCN2C(=O)[C@@H](Cc2ccc(O)cc2)NC1=O — MIC geometric mean (Gram-negative bacteria; 24 h, 7 strains): 39 µg/mL (≈ 32.5 µM)
CC[C@H](C)[C@H](NC(=O)[C@H](CCCCN)NC(=O)[C@H](CCCCN)NC(=O)[C@H](CC(C)C)NC(=O)[C@H](CCCCN)NC(=O)[C@H](CCC(=O)O)NC(=O)[C@H](CCCCN)NC(=O)[C@@H](NC(=O)[C@H](CCCCN)NC(=O)[C@H](CC(N)=O)NC(=O)[C@H](CCCNC(=N)N)NC(=O)[C@H](Cc1ccccc1)NC(=O)[C@H](CCCCN)NC(=O)[C@H](CCCNC(=N)N)NC(=O)[C@H](CC(C)C)NC(=O)[C@H](CCCNC(=N)N)NC(=O)[C@H](CCCCN)NC(=O)[C@H](CCCNC(=N)N)NC(=O)[C@H](CC(C)C)NC(=O)[C@@H](N)CC(C)C)[C@@H](C)CC)C(=O)NCC(=O)N[C@@H](CCC(N)=O)C(=O)N[C@@H](CCCCN)C(=O)N[C@H](C(=O)N[C@@H](CCC(N)=O)C(=O)NCC(=O)N[C@@H](Cc1ccccc1)C(=O)N[C@H](C(=O)N1CCC[C@H]1C(=O)N[C@@H](CCCCN)C(=O)N[C@@H](CC(C)C)C(=O)N[C@H](C(=O)N1CCC[C@H]1C(=O)N[C@@H](CCCNC(=N)N)C(=O)N[C@H](C(=O)N[C@@H](CCC(=O)O)C(=O)N[C@@H](CO)C(=O)O)[C@@H](C)O)C(C)C)C(C)C)[C@@H](C)CC — lethal concentration (Staphylococcus; inhibition zone; methicillin-resistant coagulase-negative P1369): 1.48 µM
N=C(N)NCCC[C@@H]1NC(=O)[C@H](CCCCNC(=O)CCOCCOCCOCCOCCNC(=O)CN2CCN(CC(=O)O)CCN(CC(=O)O)CCN(CC(=O)O)CC2)NC(=O)[C@@H](Cc2ccccc2)NC(=O)[C@H](CC(=O)O)NC(=O)CNC1=O [indium-111 labelled] — tissue uptake (female athymic nude mice, kidney; intravenous, 3 µCi, 0.5 h, U-87 MG glioma xenograft): 10.9 ± 3.96 %ID/g
C=CCc1ccc(OCc2ccccc2)c(OC)c1 — antifeedant index (Spodoptera frugiperda; larvae; 1000 µg/mL; relative to: untreated control): 52.7%
N=C(N)NCCC[C@@H]1NC(=O)[C@H](CCCCNC(=O)CC[C@H](NC(=O)CCOCCOCCOCCOCCNC(=O)CN2CCN(CC(=O)O)CCN(CC(=O)O)CCN(CC(=O)O)CC2)C(=O)NCCCC[C@@H]2NC(=O)[C@@H](Cc3ccccc3)NC(=O)[C@H](CC(=O)O)NC(=O)CNC(=O)[C@H](CCCNC(=N)N)NC2=O)NC(=O)[C@@H](Cc2ccccc2)NC(=O)[C@H](CC(=O)O)NC(=O)CNC1=O [indium-111 labelled] — tumour to muscle ratio (female athymic nude mouse; intravenous, 3 µCi, 24 h, U-87 MG glioma xenograft; relative to: tumour over muscle): 7.9 ± 1.53
CC1(C)CC[C@]2(CO)CC[C@]3(C)C(=CC[C@@H]4[C@@]5(C)CCCNC(C)(C)[C@@H]5CC[C@]43C)[C@@H]2C1 — selectivity index (Human alphaherpesvirus 1; HFF, E-377; relative to: CC50 over EC50): < 2
CCn1c2ccccc2c2cc(/C=N/NC(=O)Cn3ccc(=O)c4ccccc43)ccc21 — inhibition (Botrytis cinerea; microbial growth; 50 µg/mL): 20.8%
C=CCc1ccc(OCC=C(C)C)c(OC)c1 — antifeedant index (Spodoptera frugiperda; larvae; 250 µg/mL; relative to: untreated control): 46.2%
COC(=O)C1=CO[C@@H](OC(C)=O)[C@@H]2C(Cn3cc(CCCCN4C(=O)c5ccccc5C4=O)nn3)=CC[C@H]12 — viability (SK-N-SH; neuroprotection, MTT; 0.3 µM, 24 h, with: 250 µM H2O2): 60.5 ± 0.7%
CC(C)C[C@@H]1NC(=O)[C@H](CCCCN)NC(=O)[C@H](C(C)C)NC(=O)[C@@H]2CCCN2C(=O)[C@@H](Cc2ccc(O)cc2)NC(=O)[C@H](CC(C)C)NC(=O)[C@H](CCCCN)NC(=O)[C@H](C(C)C)NC(=O)[C@H](CCCCN)NC(=O)[C@H](CC(C)C)NC(=O)[C@H](CCCCN)NC(=O)[C@@H]2CCCN2C(=O)[C@@H](Cc2ccc(O)cc2)NC(=O)[C@H](C(C)C)NC(=O)[C@H](CCCCN)NC1=O — MIC geometric mean (Gram-negative bacteria; 24 h, 7 strains): 19.5 µg/mL (≈ 10.8 µM)
CCC1(O)C([N+](=O)[O-])=NNc2nc(C)nn21 (stereo not shown) — selectivity index (coxsackievirus B3; Vero, Nancy; relative to: CC50 over IC50): 2
CC(=O)O[C@@H]1C[C@@H](C)O[C@H]2O[C@@H]3C[C@@H]4CC[C@@H]5[C@H](CC[C@]6(C)[C@@H](C7=CC(=O)OC7)CC[C@]56O)[C@@]4(C)C[C@H]3O[C@]21O — viability effect (Schistosoma mansoni; microscopic viability score; adult worms; 0.1 µM, 72 h): 24.4%

Excerpt of the above:
CCCCCCCCC(=O)NCc1ccc(O)c(OC)c1 — IC50 (mAb 4-AT4; antibody binding, indirect competitive ELISA; with: coating antigen hapten 1-OVA): 20.1 ng/mL (≈ 0.0686 µM)
CCCC[C@H](NC(=O)CNC(=O)CNC(=O)c1ccc(NN)nc1)C(=O)N[C@H]1CC(=O)NCCCC[C@@H](C(N)=O)NC(=O)[C@H](Cc2c[nH]c3ccccc23)NC(=O)[C@H](CCCNC(=N)N)NC(=O)[C@@H](Cc2ccccc2)NC(=O)[C@H](Cc2c[nH]cn2)NC1=O [technetium-99m labelled] — tissue uptake (C57 mouse, B16/F1 melanoma-bearing, muscle; intravenous, 0.5 h): 0.27 ± 0.05 %ID/g
CC[C@H](C)[C@H](NC(=O)CNC(=O)[C@H](CC(C)C)NC(=O)[C@@H](NC(=O)CNC(=O)[C@H](CC(C)C)NC(=O)[C@H](CCC(N)=O)NC(=O)[C@@H](NC(=O)[C@H](CO)NC(=O)[C@H](C)NC(=O)[C@H](CCCCN)NC(=O)[C@H](CCCNC(=N)N)NC(=O)[C@H](CC(C)C)NC(=O)CNC(=O)[C@H](CCC(N)=O)NC(=O)[C@H](CC(C)C)NC(=O)[C@H](CC(C)C)NC(=O)[C@H](CCC(=O)O)NC(=O)CNC(=O)[C@H](CCCNC(=N)N)NC(=O)[C@@H](NC(=O)[C@H](CCCCN)NC(=O)[C@H](Cc1ccccc1)NC(=O)[C@H](CCCCN)NC(=O)[C@H](CCCCN)NC(=O)[C@H](CO)NC(=O)[C@H](CCCCN)NC(=O)[C@H](CC(C)C)NC(=O)[C@H](CC(C)C)NC(=O)[C@H](CCCCN)NC(=O)[C@H](CCCCN)NC(=O)[C@@H](NC(=O)[C@@H](NC(=O)[C@H](CCCCN)NC(=O)CNC(=O)[C@H](CC(C)C)NC(=O)[C@H](CCCCN)NC(=O)[C@H](C)N)[C@@H](C)O)[C@@H](C)CC)[C@@H](C)CC)C(C)C)[C@@H](C)O)C(=O)N[C@@H](CC(C)C)C(=O)O — antibacterial activity (Gram-negative bacteria; MIC; concentration not given): active
C[C@@](O)(C(F)F)[C@H](NC(=O)c1ccc(C#CC#CC2CC2)cc1)C(=O)NO — MIC90 (Citrobacter freundii; agar dilution; ESBL and carbapenemase producers): 0.125 µg/mL (≈ 0.332 µM)
